Results from different studies.
Parts stem from different laboratories: compare values within a part only. Positions count from the first letter of the parent shown.

Series 1
Target: ATF5, bZIP domain (human)
Technique: DHFR protein complementation
Matrix: yeast
Notes: single substitutions, most at no-binding floor
Relative to: wild-type JUN-FOS pair
Direction: higher = stronger binding
Parent: JUN, bZIP domain (human); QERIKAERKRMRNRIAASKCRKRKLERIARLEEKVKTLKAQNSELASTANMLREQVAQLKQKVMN; partner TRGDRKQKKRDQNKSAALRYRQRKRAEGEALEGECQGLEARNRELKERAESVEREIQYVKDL
Change | binding fitness
A46P | -1.53 natural log
S43K | -0.981 natural log
A57G | -1.46 natural log
T48H | -1.54 natural log

Series 2
Target: RNA binding protein fox-1 homolog 2, RRM domain, GST-SBP tag (RBFOX2, Homo sapiens, UniProt O43251-10, residues 100-194)
Technique: RNA Bind-n-Seq
Form: RNA
Matrix: in vitro
Concentration: 365 nM
Notes: natural RNA segment, single round, ends assumed
Relative to: no-protein control
Direction: higher = stronger binding
Residues (chain): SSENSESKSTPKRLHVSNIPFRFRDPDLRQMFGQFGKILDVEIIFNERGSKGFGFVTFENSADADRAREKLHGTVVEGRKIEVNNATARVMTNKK
Strand | RBNS enrichment (R)
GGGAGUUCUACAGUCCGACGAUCUCCCUUCCCUUUGCACAUAUUUUUUCCUCCCCUUAUUGAAGUCAGCUCUAACCCCAAAUUCUAGUAUCCAAAAGUAUUUUUAUUUGUAUAAUGCUAUCUGAAAAAUGUGUUGGAAUUCUCGGGUGCCAA | 0.578
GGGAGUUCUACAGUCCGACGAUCGGCACCUGUCCCUCCUCUCCCCUCACCCUACACUUGUUCCAGCUCUUUGAAAUAGUUUGUGUGAAGGUGAAAGUGCAGUUCAGUAAUAAAUGGUGUCUGUGACUCUGUGAUGGAAUUCUCGGGUGCCAA | 0.327
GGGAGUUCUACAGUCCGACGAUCGUCCCCCAGGUGUCCAUCUCCUAUCUUUUUGUUCCAAUCUUCUGUGAGUUCCAGCUAGCAGGCUUUACAUCUGGGGAAAGGAAAACCAGGGGUUUUAGCUCUGUUCUCUGUGGAAUUCUCGGGUGCCAA | 0.741
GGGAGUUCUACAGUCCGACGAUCAGUGUAUAGUAUUAAGAUGCCUAGAAGAGAGAUGGUUUUGUUCCACUCUUACAGGCACUUUAUAUUUCUUGCUGUAACUACAGCAAUCACAUACAGUACAGACAACCUCAUGGAAUUCUCGGGUGCCAA | 0.284
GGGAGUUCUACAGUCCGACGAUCUUACCGGUUGAUUGAAAUAUCAGUUAAAGGUUGCCAGCAUGGUUGCAGAUAAACUGAUGUUUGAAAUUCGCUGAAAUACUUAAUGUGGAAUAGGAUAAUAUACUUCCAAUUGGAAUUCUCGGGUGCCAA | 0.24
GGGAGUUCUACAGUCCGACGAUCUUGGCACUCACUAGCUGCCCCUACAGCUUGCCUCUGGGCCUCAGAGAGGGGUGUUUCUGCCCGGGUUGCCCUCCUUCAGUGAGUCAGAAGAACCUUCUGGGCCUAGAGGCUGGAAUUCUCGGGUGCCAA | 0.402

Series 3
Target: Prothrombin, mature alpha-thrombin (F2, Homo sapiens, UniProt P00734)
Technique: aptamer microarray, sandwich
Form: DNA with 2'F-ANA
Matrix: in vitro
Concentration: 200 nM
Notes: whole 15-mer aptamer, many near background
With: Cy3 exosite-II aptamer, 400 nM
Direction: higher = stronger binding
Strand: GGTTGGTGTGGTTGG
Modification | mean fluorescence intensity [a.u.]
2'F-ANA at 3 4 7 8 10 12 14 15 | 212
2'F-ANA at 2 3 4 5 6 9 11 13 15 | 61.9
2'F-ANA at 1 3 6 7 8 9 12 13 | 411
2'F-ANA at 2 3 4 5 7 8 9 10 13 14 | 51.7
2'F-ANA at 1 2 4 5 6 7 8 9 12 13 14 15 | 54.7
2'F-ANA at 1 3 7 8 9 10 11 | 98.9
2'F-ANA at 1 2 3 4 5 6 9 13 15 | 52.9
2'F-ANA at 4 8 12 14 15 | 133

Other studies, line by line
Substance | target | test | system | setting | how to read | endpoint | result
PhoQ, residues 284 288 289 292 302 303 SVHLDV | PhoP, residues 12 14 15 18 19 LWHVM (Escherichia coli, UniProt P23836) | Sort-seq, refers to: YFP reporter | E. coli | PhoQ-PhoP variant library, with: 10 µM Mg2+ | relative to: high Mg2+ state, higher = stronger signaling | fold induction | 8.37

Repeated from above (series 3):
Modification | mean fluorescence intensity [a.u.]
2'F-ANA at 1 2 4 5 6 7 8 9 12 13 14 15 | 54.7
2'F-ANA at 1 3 7 8 9 10 11 | 98.9
